Earlier results, collected from citations in different studies.
Compare with care: the assays were run in different laboratories. Numbers after ± are the reported error.
Target: EGFR

SMILES	observed	mode	IC50
C=CCn1c(SCC(=O)Nc2ccc(C(=O)/C=C/c3ccc(Cl)cc3)cc2)nnc1-c1cc(-c2ccccc2)nc2ccccc12		inhibitor	1.3 ± 0.12 µM
Cc1ccc(Nc2cc(Oc3ccc4[nH]ccc4c3)ncn2)cc1S(N)(=O)=O			0.018 µM
Cc1ccc2nc(SCc3cn(-c4cccc(C(=O)O)c4)nn3)n(Cc3ccccc3)c(=O)c2c1		inhibitor	0.0385 µM
O=C1N/C(=N/N=C/c2cc(Br)ccc2O)CS1		inhibitor	0.09 µM
CC(C)=CC[C@@H](OC(=O)/C=C/C(=O)c1ccc(F)cc1)C1=CC(=O)c2c(O)ccc(O)c2C1=O			0.0227 µM
O=C(CSc1nnc(Cn2cc(-c3ccccc3)nn2)o1)Nc1nc(-c2ccc(Br)cc2)cs1		inhibitor	0.16 ± 0.05 µM
N#Cc1ccc(-c2csc(N3N=C(c4ccc(N5CCOCC5)cc4)CC3c3ccc(Cl)cc3)n2)cc1 (stereo not drawn)	kinase activity	inhibitor	4.34 µM
Oc1ccccc1			0.00076 µM
O=C(NCCc1ccc(N2CCOCC2)cc1)c1[nH]c2ccc(Cl)cc2c1CO			0.12 µM
